Experimental data pooled from the literature.
Each numbered part is a random draw from the data of one study; scales do not carry over between parts. Values joined by “and” are separate records of one study, mostly repeats; a detail may differ.
Sequence of UniProt Q99640 (whole entry, looked up): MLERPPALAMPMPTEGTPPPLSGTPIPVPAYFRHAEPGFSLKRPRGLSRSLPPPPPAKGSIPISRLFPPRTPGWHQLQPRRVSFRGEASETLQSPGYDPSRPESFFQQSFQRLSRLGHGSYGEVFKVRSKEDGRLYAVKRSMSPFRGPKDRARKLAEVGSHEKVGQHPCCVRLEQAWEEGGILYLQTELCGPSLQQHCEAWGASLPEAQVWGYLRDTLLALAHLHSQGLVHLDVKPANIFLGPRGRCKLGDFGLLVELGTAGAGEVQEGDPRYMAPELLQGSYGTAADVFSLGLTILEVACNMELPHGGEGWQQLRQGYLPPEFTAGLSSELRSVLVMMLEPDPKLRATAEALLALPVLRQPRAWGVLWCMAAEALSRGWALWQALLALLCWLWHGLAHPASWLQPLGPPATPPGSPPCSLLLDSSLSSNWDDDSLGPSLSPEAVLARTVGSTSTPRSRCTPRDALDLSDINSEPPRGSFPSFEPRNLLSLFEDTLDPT

Set 1
SMILES: O=C(O)C1Oc2cc(F)ccc2N(Cc2ccccc2)C1=O (centres unmarked)
Organism: Arabidopsis thaliana
Strain: Col-0
| tested at | notes | hypocotyl length |
| --- | --- | --- |
| 6.25 µg/mL | seed germination, single repetition | 2.29 cm and 2.3 cm and 2.32 cm and 2.34 cm |
| 100 µg/mL | seed germination, repetition mean | 1.54 cm |
| 50 µg/mL | seed germination, single repetition | 1.78 cm and 1.82 cm and 1.83 cm and 1.79 cm |
| 100 µg/mL | seed germination, single repetition | 1.55 cm and 1.54 cm and 1.52 cm and 1.53 cm |

Set 2
Target: E3 ubiquitin-protein ligase NEDD4 (Homo sapiens, UniProt P46934)
Sequence of UniProt P46934 (whole entry, looked up): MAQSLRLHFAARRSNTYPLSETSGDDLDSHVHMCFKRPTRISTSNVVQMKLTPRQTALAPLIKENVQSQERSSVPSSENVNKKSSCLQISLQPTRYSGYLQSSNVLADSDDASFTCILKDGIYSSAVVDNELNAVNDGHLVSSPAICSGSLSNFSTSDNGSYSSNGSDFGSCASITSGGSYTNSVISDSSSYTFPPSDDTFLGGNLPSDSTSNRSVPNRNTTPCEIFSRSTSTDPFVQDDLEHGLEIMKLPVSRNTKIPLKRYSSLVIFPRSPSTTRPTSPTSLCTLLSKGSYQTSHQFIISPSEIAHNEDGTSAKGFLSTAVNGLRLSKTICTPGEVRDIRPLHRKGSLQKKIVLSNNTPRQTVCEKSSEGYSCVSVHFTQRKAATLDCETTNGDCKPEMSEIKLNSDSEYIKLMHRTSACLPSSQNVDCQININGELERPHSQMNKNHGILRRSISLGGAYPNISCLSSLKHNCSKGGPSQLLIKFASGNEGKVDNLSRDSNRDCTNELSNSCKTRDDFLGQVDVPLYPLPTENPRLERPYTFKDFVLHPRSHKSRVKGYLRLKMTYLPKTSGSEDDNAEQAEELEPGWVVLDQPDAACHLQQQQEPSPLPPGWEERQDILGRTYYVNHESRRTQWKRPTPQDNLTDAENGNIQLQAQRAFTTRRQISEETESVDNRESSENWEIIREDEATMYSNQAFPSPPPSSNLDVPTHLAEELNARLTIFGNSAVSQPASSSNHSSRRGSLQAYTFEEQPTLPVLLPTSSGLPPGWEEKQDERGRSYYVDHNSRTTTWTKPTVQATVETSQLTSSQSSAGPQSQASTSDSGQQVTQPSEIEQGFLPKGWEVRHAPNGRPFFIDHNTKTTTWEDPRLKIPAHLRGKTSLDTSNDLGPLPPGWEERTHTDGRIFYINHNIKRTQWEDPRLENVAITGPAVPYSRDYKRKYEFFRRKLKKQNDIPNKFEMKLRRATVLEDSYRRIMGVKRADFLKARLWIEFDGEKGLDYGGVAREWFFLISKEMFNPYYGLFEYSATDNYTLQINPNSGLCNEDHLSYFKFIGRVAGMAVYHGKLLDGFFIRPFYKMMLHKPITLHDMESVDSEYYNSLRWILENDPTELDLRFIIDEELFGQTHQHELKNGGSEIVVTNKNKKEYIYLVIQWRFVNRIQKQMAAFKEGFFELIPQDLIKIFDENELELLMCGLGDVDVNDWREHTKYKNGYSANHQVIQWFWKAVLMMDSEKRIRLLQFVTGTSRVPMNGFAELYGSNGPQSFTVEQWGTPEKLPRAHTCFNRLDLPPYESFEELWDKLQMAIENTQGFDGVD
Observed: enzyme activity
Mode: inhibitor
Method: TR-FRET
Tested at: 100 µM
| SMILES | inhibition |
| --- | --- |
| CNCCCN1c2ccccc2CCc2ccc(Cl)cc21 | 47.7% |
| CNC(=O)/C=C/CNCCCN1c2ccccc2CCc2ccc(Cl)cc21.Cl | 60.5% |
| COC(=O)CCCNCCCN1c2ccccc2CCc2ccc(Cl)cc21.COC(=O)CCCNCCCN1c2ccccc2CCc2ccc(Cl)cc21.O=C(O)/C=C/C(=O)O | 46.4% |
| C=CC(=O)NCCCN1c2ccccc2CCc2ccc(Cl)cc21 | < 10% |

Set 3
Structure (SMILES): Cc1ncsc1-c1ccc(C2(NC(=O)C3CC(O)CN3C(=O)C(NC(=O)c3ccc(COc4c(-c5c(C)c(F)cc6[nH]ncc56)c(C5CC5)cc5c(N6CC7CC6CN7)nc(OC6CCOCC6)nc45)cc3)C(C)(C)C)CC2)cc1 (centres unmarked)
Cell line: AsPC-1
Method: in-cell ELISA
| tested at | notes | phospho-ERK1/2 level |
| --- | --- | --- |
| 3 nM | per-experiment values | 98.5% and 99.4% and 90.6% |
| 100 nM | per-experiment values | 86.4% and 98.9% and 83.8% |
| 10 nM | individual replicates | 107% and 88% and 102% and 103% and 94.4% and 86.8% |
| 300 nM | per-experiment values | 64.7% and 57.5% and 95.2% |
| 1 nM | individual replicates | 85.2% and 105% and 95% and 88.4% and 83.6% and 101% |

Mixed results
| Structure (SMILES) | tested on | test | setting | how to read | measurement | value |
| --- | --- | --- | --- | --- | --- | --- |
| Cc1ccc(O)c(C)c1-c1cnc2[nH]c(-c3cnc(N4CCC5(CC4)CC(N4CCN(c6ccc(N[C@H]7CCC(=O)NC7=O)cc6F)CC4)CO5)nc3)cc2c1C#N (single isomer, unassigned) | Membrane-associated tyrosine- and threonine-specific cdc2-inhibitory kinase (PKMYT1, Homo sapiens, UniProt Q99640) | target engagement, NanoBRET | – | – | EC50 | 12 nM |
| Cc1ccc(O)c(C)c1-c1cnc2[nH]c(-c3cnc(N4CCC(CN5CCN(c6ccc7c(c6)C(=O)N(C6CCC(=O)NC6=O)C7=O)CC5)CC4)nc3)cc2c1C#N (centres unmarked) | HCC1569 | CDK1 Thr14 phosphorylation, in-cell western | 111.11 nM | lower = stronger inhibition | phospho-CDK1 (Thr14) level | 73.6 a.u. and 72.5 a.u. |
| Cc1ccc(O)c(C)c1-c1cnc2[nH]c(-c3cnc(N4CCC(CN5CCN(c6cc7c(cc6F)c(N6CCC(=O)NC6=O)nn7C)CC5)CC4)nc3)cc2c1C#N | HCC1569 | CDK1 Thr14 phosphorylation, in-cell western | 1000.00 nM | lower = stronger inhibition | phospho-CDK1 (Thr14) level | 118 a.u. |
| Cc1ccc(O)c(C)c1-c1cnc2[nH]c(-c3cnc(N)nc3)cc2c1C#N | ABL1 non-phosphorylated human | KINOMEscan | 1000 nM | relative to: control | binding remaining | 21% |

A few entries again (set 1):
| tested at | notes | hypocotyl length |
| --- | --- | --- |
| 100 µg/mL | seed germination, single repetition | 1.55 cm and 1.54 cm and 1.52 cm and 1.53 cm |
| 6.25 µg/mL | seed germination, single repetition | 2.29 cm and 2.3 cm and 2.32 cm and 2.34 cm |
